Results gathered from unrelated publications.
Each numbered part is a random draw from the data of one study; scales do not carry over between parts.
Chain of UniProt P42681 (whole entry, looked up): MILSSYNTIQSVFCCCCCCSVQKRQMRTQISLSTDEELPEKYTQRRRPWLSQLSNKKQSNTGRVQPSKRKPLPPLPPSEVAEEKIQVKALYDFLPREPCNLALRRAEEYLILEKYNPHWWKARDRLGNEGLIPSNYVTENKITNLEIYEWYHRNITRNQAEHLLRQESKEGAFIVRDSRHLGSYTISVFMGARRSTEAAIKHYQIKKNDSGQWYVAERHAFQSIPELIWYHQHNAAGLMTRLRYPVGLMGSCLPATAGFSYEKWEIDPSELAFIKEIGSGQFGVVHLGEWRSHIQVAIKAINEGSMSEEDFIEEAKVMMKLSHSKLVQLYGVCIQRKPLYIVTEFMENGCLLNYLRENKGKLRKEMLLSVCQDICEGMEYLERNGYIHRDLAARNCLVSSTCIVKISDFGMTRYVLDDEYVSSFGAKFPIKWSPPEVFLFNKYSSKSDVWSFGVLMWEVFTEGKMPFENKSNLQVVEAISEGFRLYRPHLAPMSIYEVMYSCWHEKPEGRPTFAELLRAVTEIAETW
Chain of UniProt Q96L34 (whole entry, looked up): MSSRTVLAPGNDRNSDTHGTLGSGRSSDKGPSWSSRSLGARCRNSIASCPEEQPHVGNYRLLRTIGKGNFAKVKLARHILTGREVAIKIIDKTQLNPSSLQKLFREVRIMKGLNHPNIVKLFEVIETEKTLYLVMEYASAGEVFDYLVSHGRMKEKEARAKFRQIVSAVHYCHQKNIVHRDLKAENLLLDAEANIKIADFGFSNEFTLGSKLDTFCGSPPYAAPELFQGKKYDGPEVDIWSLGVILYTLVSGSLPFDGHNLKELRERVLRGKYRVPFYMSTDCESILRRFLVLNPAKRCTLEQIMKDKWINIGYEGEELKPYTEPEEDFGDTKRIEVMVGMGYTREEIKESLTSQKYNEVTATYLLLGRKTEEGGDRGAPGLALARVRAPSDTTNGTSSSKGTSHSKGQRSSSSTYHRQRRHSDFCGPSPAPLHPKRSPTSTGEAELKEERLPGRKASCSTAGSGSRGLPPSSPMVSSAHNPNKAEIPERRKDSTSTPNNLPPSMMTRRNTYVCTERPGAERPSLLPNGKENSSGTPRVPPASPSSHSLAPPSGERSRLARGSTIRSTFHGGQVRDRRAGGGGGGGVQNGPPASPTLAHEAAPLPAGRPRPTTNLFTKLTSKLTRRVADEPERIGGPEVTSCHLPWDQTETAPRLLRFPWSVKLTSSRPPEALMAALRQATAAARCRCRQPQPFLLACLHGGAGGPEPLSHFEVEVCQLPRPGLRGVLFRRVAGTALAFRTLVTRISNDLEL
Chain of UniProt Q9H1R3 (whole entry, looked up): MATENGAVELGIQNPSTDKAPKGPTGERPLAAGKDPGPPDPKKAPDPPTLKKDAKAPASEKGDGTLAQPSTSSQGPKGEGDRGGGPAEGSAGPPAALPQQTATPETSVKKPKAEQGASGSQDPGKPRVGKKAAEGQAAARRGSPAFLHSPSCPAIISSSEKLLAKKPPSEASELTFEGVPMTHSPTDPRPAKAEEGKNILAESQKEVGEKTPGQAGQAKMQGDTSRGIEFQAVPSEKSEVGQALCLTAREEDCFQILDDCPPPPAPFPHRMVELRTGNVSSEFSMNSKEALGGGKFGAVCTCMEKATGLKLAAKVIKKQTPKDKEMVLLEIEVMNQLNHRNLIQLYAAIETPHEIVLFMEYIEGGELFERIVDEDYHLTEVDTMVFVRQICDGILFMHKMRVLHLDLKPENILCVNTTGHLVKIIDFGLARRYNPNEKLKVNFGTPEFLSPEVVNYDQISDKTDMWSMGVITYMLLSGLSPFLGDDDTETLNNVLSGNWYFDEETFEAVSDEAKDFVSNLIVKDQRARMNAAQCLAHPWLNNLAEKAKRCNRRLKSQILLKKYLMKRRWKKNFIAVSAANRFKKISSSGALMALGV
Chain of UniProt O94804 (whole entry, looked up): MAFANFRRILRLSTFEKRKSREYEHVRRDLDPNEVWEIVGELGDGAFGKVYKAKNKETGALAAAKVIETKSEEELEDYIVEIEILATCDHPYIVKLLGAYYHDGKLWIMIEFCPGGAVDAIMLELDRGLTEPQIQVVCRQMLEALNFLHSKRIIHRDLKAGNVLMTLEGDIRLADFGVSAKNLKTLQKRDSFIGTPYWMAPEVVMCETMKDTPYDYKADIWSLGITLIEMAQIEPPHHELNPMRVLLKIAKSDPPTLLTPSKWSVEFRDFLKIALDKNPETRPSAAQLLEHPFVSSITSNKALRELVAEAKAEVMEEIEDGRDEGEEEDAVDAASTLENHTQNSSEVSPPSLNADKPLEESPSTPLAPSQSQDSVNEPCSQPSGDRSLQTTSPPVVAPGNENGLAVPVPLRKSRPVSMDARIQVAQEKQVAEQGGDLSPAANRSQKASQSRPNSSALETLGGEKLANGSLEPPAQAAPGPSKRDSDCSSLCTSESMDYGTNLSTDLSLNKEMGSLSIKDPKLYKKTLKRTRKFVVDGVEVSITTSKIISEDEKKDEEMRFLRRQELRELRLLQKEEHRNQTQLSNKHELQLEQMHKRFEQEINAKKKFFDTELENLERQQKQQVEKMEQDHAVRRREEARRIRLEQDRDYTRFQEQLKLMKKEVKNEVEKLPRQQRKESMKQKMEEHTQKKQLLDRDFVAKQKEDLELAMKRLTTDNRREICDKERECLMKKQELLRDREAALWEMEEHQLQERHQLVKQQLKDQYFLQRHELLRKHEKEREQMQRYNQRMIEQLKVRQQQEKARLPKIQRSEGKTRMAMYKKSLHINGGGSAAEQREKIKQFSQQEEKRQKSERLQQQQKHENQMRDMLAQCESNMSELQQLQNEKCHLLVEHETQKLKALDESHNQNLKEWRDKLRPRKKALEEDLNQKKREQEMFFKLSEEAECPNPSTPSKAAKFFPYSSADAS
Chain of UniProt P30291 (whole entry, looked up): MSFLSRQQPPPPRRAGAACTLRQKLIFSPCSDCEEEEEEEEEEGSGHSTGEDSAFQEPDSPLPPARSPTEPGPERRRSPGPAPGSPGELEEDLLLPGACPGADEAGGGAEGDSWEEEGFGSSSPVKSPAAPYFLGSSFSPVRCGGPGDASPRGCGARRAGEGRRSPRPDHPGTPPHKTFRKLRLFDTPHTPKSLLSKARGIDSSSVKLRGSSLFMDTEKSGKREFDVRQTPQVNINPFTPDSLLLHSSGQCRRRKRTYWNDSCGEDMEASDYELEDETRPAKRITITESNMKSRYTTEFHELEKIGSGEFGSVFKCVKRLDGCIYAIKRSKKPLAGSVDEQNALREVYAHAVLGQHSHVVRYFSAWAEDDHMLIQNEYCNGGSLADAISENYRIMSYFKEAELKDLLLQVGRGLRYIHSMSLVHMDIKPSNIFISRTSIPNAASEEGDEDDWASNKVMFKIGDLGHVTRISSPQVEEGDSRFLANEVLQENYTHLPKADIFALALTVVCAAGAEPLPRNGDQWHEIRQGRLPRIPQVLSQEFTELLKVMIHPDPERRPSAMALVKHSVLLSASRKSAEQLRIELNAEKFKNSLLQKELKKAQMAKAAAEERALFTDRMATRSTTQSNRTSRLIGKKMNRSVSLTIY
Chain of UniProt O75716 (whole entry, looked up): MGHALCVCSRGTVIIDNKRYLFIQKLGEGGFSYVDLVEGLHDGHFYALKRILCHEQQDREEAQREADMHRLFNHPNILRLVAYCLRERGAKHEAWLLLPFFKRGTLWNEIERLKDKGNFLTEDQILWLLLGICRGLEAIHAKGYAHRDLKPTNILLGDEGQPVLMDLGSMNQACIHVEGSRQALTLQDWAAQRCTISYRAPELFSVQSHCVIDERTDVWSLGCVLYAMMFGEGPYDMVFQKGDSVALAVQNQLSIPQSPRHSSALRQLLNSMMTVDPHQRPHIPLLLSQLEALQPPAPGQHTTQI

Sample 1
Host: mouse
Matrix: microsomes or S9
Tested at: 2 µM
Time: 0.5 h
SMILES | remaining compound
C[C@H](O)CNS(=O)(=O)C1CCc2cc(Br)ccc2C1 (stereo partly drawn) | 76%
N#Cc1c(N)c(-c2ccccc2)c(F)c2ccccc12 | 22.4%
Cc1cc(=O)n2nc(-c3cccs3)nc2n1CC(=O)N1CCN(C)CC1 | > 99%
O=C(Nc1nnc(Cc2ccc3c(c2)OCO3)o1)c1cc2ccccc2o1 | 0.345%
Cc1ccc(S(=O)(=O)N2CCN(C(=O)CN3CCOCC3)C2c2ccc(Cl)cc2Cl)cc1 (stereo not drawn) | 1.71%
CNS(=O)(=O)c1cn(CC(=O)Nc2ccc(C)cn2)cc1S(=O)(=O)NC | 89.6%
CC(c1ccc(F)cc1)N(C)C(=O)c1ccc(-c2ccncc2)[nH]c1=O (stereo not drawn) | 30.6%

Sample 2
Structure (SMILES): CO[C@H]1CC[C@H](CNc2ccc(S(=O)(=O)NC(=O)c3ccc(N4CCN(CC5=C(c6ccc(Cl)cc6)CC(C)(C)CC5)CC4)cc3Oc3cnc4[nH]ccc4c3)cc2[N+](=O)[O-])CC1
Technique: competition with immobilised ligand
Tested at: 1 µM
target | test | remaining binding [%]
Serine/threonine-protein kinase 10 (STK10, Homo sapiens, UniProt O94804) | cell-free assay | 74
Receptor-type tyrosine-protein kinase FLT3 (FLT3, Homo sapiens, UniProt P36888, D835V/ITD) | cell-free assay | 100
Myosin light chain kinase 2, skeletal/cardiac muscle (MYLK2, Homo sapiens, UniProt Q9H1R3) | cell-free assay | 66
Mitogen-activated protein kinase kinase kinase 4 (MAP3K4, Homo sapiens, UniProt Q9Y6R4) | cell-free assay | 90
Hepatocyte growth factor receptor (MET, Homo sapiens, UniProt P08581, M1250T) | cell-free assay | 96
Wee1-like protein kinase (WEE1, Homo sapiens, UniProt P30291) | cell-free assay | 100
MAP/microtubule affinity-regulating kinase 4 (MARK4, Homo sapiens, UniProt Q96L34) | cell-free assay | 83
Serine/threonine-protein kinase 16 (STK16, Homo sapiens, UniProt O75716) | cell-free assay | 79
Tyrosine-protein kinase TXK (TXK, Homo sapiens, UniProt P42681) | binding | 100

Sample 3
Cell line: A-375
Tested at: 100 µM
Time: 18 h
SMILES | viability
OCCOCCN1CCN(C(c2ccccc2)c2ccc(Cl)cc2)CC1 (stereo not drawn) | 67.2%
CC1=NS(=O)(=O)c2cc(Cl)ccc2N1 | 100%
COc1nc(C)nc(Cl)c1N=C1NCCN1 | 103%
Cn1c(=O)c2c(ncn2CCO)n(C)c1=O | 88.3%
Oc1c(I)cc(I)c2cccnc12 | 60.8%
Nc1cccc2c1CN(C1CCC(=O)NC1=O)C2=O (stereo not drawn) | 101%
CN(C(=O)CN(CCO)CC(=O)N(C)C(C)(C)Cc1ccccc1)C(C)(C)Cc1ccccc1 | 9.04%
Oc1c(I)cc(Cl)c2cccnc12 | 35.2%

Sample 4
Target: Activin receptor type-1B (ACVR1B, Homo sapiens, UniProt P36896)
Observed: enzyme activity
Action: inhibitor
Tested at: 0.5 µM
Baseline: control
Residues (P36896 1-505): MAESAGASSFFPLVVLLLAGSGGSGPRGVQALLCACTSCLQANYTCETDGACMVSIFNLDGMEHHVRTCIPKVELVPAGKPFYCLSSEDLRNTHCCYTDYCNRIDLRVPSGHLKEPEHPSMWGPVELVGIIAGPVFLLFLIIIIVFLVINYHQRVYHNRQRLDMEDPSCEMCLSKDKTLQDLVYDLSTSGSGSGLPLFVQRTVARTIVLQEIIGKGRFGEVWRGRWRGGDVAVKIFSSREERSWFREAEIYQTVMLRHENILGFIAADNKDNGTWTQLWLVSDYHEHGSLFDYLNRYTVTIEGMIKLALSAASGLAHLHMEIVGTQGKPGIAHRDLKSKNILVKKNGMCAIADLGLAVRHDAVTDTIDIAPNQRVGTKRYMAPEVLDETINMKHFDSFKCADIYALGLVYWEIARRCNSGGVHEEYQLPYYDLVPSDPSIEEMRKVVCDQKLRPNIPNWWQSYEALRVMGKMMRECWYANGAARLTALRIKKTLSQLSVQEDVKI
SMILES | remaining activity [%]
Cc1ccc(Nc2nccc(N(C)c3ccc4c(C)n(C)nc4c3)n2)cc1S(N)(=O)=O | 100
Cn1sc(=O)n(Cc2ccccc2)c1=O | 103
Cn1c2ccccc2c2c3c(c4c5ccccc5n(CCC#N)c4c21)CNC3=O | 115
CC(C)[C@H](CO)Nc1nc(Nc2cc(N)cc(Cl)c2)c2ncn(C(C)C)c2n1 | 107
O=C(O)c1ccc2c3c1cccc3c(=O)n1c3ccccc3nc21 | 93.5
COc1ccc(OC)c2c(=S)c3ccccc3[nH]c12 | 108
Nc1[nH]nc2nc3ccccc3nc12 | 99.9
OCC(O)CCON=C1C(c2c(O)[nH]c3ccccc23)=Nc2ccccc21 (stereo not drawn) | 110
CCOC(=O)c1c(C)[nH]c(/C=C2\C(=O)Nc3ccccc32)c1C | 96.6
COc1ccc(C(=O)Nc2sc3c(c2C(N)=O)CCCC3)cc1OC | 101
O=C(Nc1cccc(Nc2cc(Nc3cccc(C(F)(F)F)c3)ncn2)c1)C1CC1 | 101
COc1ccc(CNC(=O)Nc2ncc([N+](=O)[O-])s2)cc1 | 102
O=C1NC(=O)C(c2cn(CCCn3ccnc3)c3ccccc23)=C1Nc1ccccc1 | 96.2
CO[C@H]1C[C@@H]2CC[C@@H](C)[C@@](O)(O2)C(=O)C(=O)N2CCCC[C@H]2C(=O)O[C@H]([C@H](C)C[C@@H]2CC[C@@H](O)[C@H](OC)C2)CC(=O)[C@H](C)/C=C(\C)[C@@H](O)[C@@H](OC)C(=O)[C@H](C)C[C@H](C)/C=C/C=C/C=C/1C | 97.6
C#Cc1cccc(Nc2ncnc3cc(OCCOC)c(OCCOC)cc23)c1 | 101
CNC(=O)c1cc(Oc2ccc(NC(=O)Nc3ccc(Cl)c(C(F)(F)F)c3)cc2)ccn1 | 102
N#CC(C#N)=C(N)/C(C#N)=C/c1ccc(O)cc1 | 101
O=C(CCCc1ccc(-c2ccccc2F)cc1)Nc1ccc(O)cc1 | 95.9
COc1cc2nccc(Oc3ccc(NC(=S)NC(=O)c4ccccc4C)cc3)c2cc1OC | 92.1
Cc1cccc(-c2[nH]c(C(C)(C)C)nc2-c2ccc3c(c2)OCO3)n1 | 31
O=S(=O)(c1cccc2cnccc12)N1CCCNCC1 | 100

Repeated from above (sample 2):
target | test | remaining binding [%]
Serine/threonine-protein kinase 10 (STK10, Homo sapiens, UniProt O94804) | cell-free assay | 74
Receptor-type tyrosine-protein kinase FLT3 (FLT3, Homo sapiens, UniProt P36888, D835V/ITD) | cell-free assay | 100
Myosin light chain kinase 2, skeletal/cardiac muscle (MYLK2, Homo sapiens, UniProt Q9H1R3) | cell-free assay | 66
